Measured values from different studies.
Numbered parts are unrelated; each lists some results of a single study. Changes are numbered by the printed parent chain.

Study 1 — method: universal PBM; molecule type: double-stranded DNA, one strand shown; medium: in vitro; tested at: not given; direction: higher = stronger binding
Target: Sal-like protein 4, full length isoform B (SALL4, Homo sapiens, UniProt Q9UJQ4-2, residues 1-616)
Setting: 8-mer, flanks averaged, mean of replicates
Target sequence (chain): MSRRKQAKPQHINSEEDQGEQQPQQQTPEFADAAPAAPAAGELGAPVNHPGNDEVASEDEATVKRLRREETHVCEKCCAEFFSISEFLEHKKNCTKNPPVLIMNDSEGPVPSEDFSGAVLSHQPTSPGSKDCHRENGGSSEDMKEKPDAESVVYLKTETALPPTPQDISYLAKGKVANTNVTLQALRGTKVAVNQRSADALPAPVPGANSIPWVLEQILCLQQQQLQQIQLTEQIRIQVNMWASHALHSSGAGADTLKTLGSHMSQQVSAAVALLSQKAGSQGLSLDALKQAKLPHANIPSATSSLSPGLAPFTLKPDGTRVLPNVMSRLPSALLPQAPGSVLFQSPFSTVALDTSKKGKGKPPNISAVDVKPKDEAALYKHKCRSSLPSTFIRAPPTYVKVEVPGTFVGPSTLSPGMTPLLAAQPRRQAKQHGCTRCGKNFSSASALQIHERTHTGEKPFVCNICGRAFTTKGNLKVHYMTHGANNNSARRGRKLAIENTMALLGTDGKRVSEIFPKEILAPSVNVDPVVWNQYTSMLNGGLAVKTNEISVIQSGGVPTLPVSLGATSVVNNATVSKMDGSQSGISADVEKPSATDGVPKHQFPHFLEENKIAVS
| Strand | E-score |
| --- | --- |
| ACTAGTAA | 0.288 |
| ACAAAACA | 0.206 |
| CACAGCTC | -0.161 |
| CTATGCAC | -0.0319 |
| AGAGGTGA | 0.0488 |
| AACGATCG | 0.0995 |
| GAGTGTCC | -0.211 |
| CGGCGGCC | -0.323 |
| ATCTATCC | 0.161 |
| ACAAACGC | -0.0557 |
| GCCCACCC | -0.137 |
| GATAAAAC | 0.248 |
| GGATGAAA | 0.00988 |
| AGTTAGAC | 0.0554 |
| CGTGCCTC | -0.171 |
| CGGCTAAA | 0.00832 |
| GATACTCC | -0.179 |
| GTCGTCTA | -0.0904 |
| GCCGTGTA | -0.0522 |
| ACTTGAGG | -0.139 |
| CCAGCCAC | -0.111 |
| AGTTCGCC | -0.0361 |
| CATGGTAA | 0.187 |
| CGATTAAC | 0.013 |
| AAGAACAT | 0.234 |

Study 2 — target: CCNA2, cyclin fold, Cln2 fusion (human); method: yeast growth competition, sequencing; medium: yeast; setting: strong parent motif; relative to: not given; direction: higher = stronger binding
Starting sequence: CDKN1A docking peptide (human); SKACRRLFGPVDS; partner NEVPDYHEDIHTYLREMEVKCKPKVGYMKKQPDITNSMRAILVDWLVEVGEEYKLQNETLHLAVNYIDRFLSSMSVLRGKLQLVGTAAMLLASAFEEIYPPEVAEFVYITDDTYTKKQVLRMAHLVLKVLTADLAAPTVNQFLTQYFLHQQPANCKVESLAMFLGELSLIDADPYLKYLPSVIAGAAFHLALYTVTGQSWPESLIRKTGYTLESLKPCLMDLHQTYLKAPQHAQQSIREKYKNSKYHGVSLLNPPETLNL
| Change | normalised enrichment score |
| --- | --- |
| SKACRRNFGPVDS [L7N] | 0.678 |
| SKWCRRLFGPVDS [A3W] | 2.09 |
| SKACRRLFGPTDS [V11T] | 6.05 |
| SKACRRLHGPVDS [F8H] | 0.732 |
| SKACRRLFGPKDS [V11K] | 5.53 |
| SKACRRLFGPVQS [D12Q] | 5.29 |
| STACRRLFGPVDS [K2T] | 5.25 |
| SKACRRLTGPVDS [F8T] | -0.0734 |
| SKAIRRLFGPVDS [C4I] | 3.57 |
| SKCCRRLFGPVDS [A3C] | 5.76 |
| SKACRELFGPVDS [R6E] | 4.41 |
| SKACRRLFGPVMS [D12M] | 5.54 |
| SKACRRLFGPVNS [D12N] | 5.43 |
| SKACRRLFGPVYS [D12Y] | 5.29 |
| SKACRRLFAPVDS [G9A] | 6.04 |
| SKTCRRLFGPVDS [A3T] | 4.87 |
| SKACRRKFGPVDS [L7K] | 0.747 |
| SKACRRLFQPVDS [G9Q] | 5.84 |
| SKACRRLFGPVWS [D12W] | 4.82 |
| SKACRRGFGPVDS [L7G] | 0.195 |
| SKACRRMFGPVDS [L7M] | 0.958 |
| SKAPRRLFGPVDS [C4P] | 1.73 |
| SKACRRLAGPVDS [F8A] | 0.441 |
| SKACRRLFGPVES [D12E] | 5.45 |

Study 3 — method: RNA Bind-n-Seq; molecule type: RNA; medium: in vitro; tested at: not given; relative to: input RNA pool; direction: higher = stronger binding
Target: RING finger protein unkempt homolog, zinc fingers 1-6, GST-SBP tag (UNK, Homo sapiens, UniProt Q9C0B0, residues 30-357)
Setting: RNA with constant flanks, human-mouse chimeric sites, ends assumed
Target sequence (chain): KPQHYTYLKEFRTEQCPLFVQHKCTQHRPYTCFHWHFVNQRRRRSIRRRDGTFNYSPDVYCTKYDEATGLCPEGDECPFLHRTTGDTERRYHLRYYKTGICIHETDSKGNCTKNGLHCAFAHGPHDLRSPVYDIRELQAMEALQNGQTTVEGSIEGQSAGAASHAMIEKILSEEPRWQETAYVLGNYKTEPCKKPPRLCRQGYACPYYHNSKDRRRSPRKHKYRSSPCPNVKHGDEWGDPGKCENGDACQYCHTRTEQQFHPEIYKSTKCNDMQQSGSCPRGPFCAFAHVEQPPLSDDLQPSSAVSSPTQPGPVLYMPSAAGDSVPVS
| Strand | bound/input enrichment [ratio] |
| --- | --- |
| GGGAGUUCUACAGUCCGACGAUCCUGGCCUGGCCCUCCCCAGGGGCCUCCUUCUCUGCAUUCACUGCUUCUGCAUCAGAUACUUUCAGCUGCAACUCCCUACUGGGUGGGGCACCCAUUUGAGGCAGGGUGUUUUGGUACCCUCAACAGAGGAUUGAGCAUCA | 0.328 |
| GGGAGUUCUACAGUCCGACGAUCGACAGUGAAGAAGAGAUUAGAGAAGCAUUCCGUGUGUUUGAUAAGGAUGGCAAUGGCUAUAUUAGUGCAGCAGAGCUUCGCCAUGUGAUGACAAACCUUGGAGAGAAGUUAACAGAUGAACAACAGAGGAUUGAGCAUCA | 2.24 |
| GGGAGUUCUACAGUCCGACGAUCCUAGCAGUUAUAAGGCAAGAAGGAGCCUUGAGACAAACACUCCACACACAGGGAAGGCGAUAACAUUGUACAUUGGUUUACAUUUUUUCCCCCUGUGGAUUUUUCUAGAGGUCAUAGUGCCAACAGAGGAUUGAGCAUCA | 0.74 |
| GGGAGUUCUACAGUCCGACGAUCUGACAAGGGCACUGCAGGGCCAUGCCUUUCCUUGACAUACAGAAAAAGCUGGGCAUCAACAUAGAUCGGCACUUUAUGUUCCUAAGCGCAGAACAGCCCUAUAAGAACGCCGCUCGGUGCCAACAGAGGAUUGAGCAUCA | 0.0878 |
| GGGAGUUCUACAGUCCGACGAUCGGACAUCUGUCAAAUUGUUAUGUUCCUGUGAAACAAGUGAACACUCUUCAUAUACUAAUCUGCUUGUACAUCUGUAUGAUAGAGAAACAGAAAUCUAUUAAUCCAAGCAAUGUGUCACUUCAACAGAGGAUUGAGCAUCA | 0.192 |
| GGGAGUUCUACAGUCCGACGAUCAAAUCGUGUGUGUCCAAUAUUGAAAGUACUUUAUCUGCACUCCAGUAUGUAAGCAGUAUAGUAGUUUCUUUAGAGAAUAGGUCAGCCAUUGUAAAGUACAAUGCAAGCUUAGUCACUCCACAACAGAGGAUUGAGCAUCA | 2.92 |
| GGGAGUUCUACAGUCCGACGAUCUGGCGCCUGCGCUCCCCGUUUUUAAAUUUAAGUGUAUUUUUAUAAGAUACAUGUAUUUGUAAUAGAUCUUUUGUUACAUAAUGCUGAAAUGCUACUGGAGAUUAUGAAAAAUGUUUCAAUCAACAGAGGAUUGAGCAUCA | 0.927 |
| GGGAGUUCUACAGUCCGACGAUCCUGGCCUGGCCCUCCCCAGGGGCCUCCUUUCGUAUAGUCACUGCUUCUGCAUCAGAUACUUUCAGCUGCAACUCCCUGCAGGGUGGGGCACCUAUCUCAGGCAGAAGGUUUUGGUACCCUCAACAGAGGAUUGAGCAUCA | 0.193 |

Study 4 — method: RNAcompete; molecule type: RNA; medium: in vitro; tested at: 20 nM; setting: 7-mer, probes averaged, single round; relative to: mean of 7-mers; direction: higher = stronger binding
Target: PABPC1L2, full length, GST fusion (mouse, UniProt A0ABA7IW68)
Residues (chain): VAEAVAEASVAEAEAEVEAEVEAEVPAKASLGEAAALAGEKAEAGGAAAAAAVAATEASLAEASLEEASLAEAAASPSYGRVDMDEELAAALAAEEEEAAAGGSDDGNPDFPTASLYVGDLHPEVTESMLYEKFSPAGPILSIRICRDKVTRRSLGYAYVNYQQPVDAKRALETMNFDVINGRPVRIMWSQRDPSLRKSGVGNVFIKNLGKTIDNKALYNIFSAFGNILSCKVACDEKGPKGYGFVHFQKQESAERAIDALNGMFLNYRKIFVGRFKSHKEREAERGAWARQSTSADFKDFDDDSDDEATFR
| Strand | 7-mer Z-score |
| --- | --- |
| GUACACC | -0.209 |
| UGUUGUA | -0.345 |
| CGUGGCC | 0.0533 |
| GAGCAGU | -0.146 |
| CGAGUGG | -0.0428 |
| GACAACG | -0.012 |
| CCCUGUG | -0.331 |
| UAUGUGA | -0.206 |
| CGGUGCC | -0.142 |
| GAUUUGC | -0.403 |
| CAACAGA | 0.213 |
| GACAUGG | 0.0768 |
| AGGACUC | -0.128 |
| CAGUCUA | -0.141 |
| GGUCCCC | -0.429 |
| GUCGACC | -0.0573 |
| UAAGUCG | -0.142 |
| UAGUAUC | -0.211 |
| CGAAUAC | -0.0047 |
| CCAUAAA | 2.72 |
| UGGGAAG | 0.0225 |
| AGACAAG | 0.189 |
| GAGCCCC | -0.403 |
| GGGAGUC | -0.0935 |
| ACACCGA | 0.00979 |

Study 5 — method: protein binding microarray; molecule type: double-stranded DNA, one strand shown; medium: in vitro; tested at: not given; relative to: not given; direction: higher = stronger binding
Target: Histone acetyltransferase KAT6A, winged helix 2, GST fusion (KAT6A, Homo sapiens, UniProt Q92794, residues 85-181)
Setting: 8-mer, flanks averaged, mean of 2 arrays, mostly near background
Target sequence (chain): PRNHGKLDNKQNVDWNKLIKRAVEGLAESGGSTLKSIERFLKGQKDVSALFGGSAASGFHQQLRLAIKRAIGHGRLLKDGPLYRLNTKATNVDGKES
| Strand | E-score |
| --- | --- |
| CGTTTCCA | -0.148 |
| CGCCATCA | -0.204 |
| CGACACAG | -0.0305 |
| ACCGTTTG | -0.0589 |
| CCGACGCC | 0.0106 |
| CCGCGTCG | 0.214 |
| TCCAGAAA | -0.0951 |
| GGAACTAC | -0.0164 |
| ATGGAGCA | 0.123 |
| AGGTTACA | -0.152 |
| ACGCCTAT | -0.0905 |
| ACGCCGAT | 0.0701 |
| CGCAAGTC | -0.204 |
| GAATAGCA | 0.0326 |
| GATGTCGC | -0.0757 |
| AGACATAG | -0.0763 |
| CAGTACGA | 0.00553 |
| AGGGTTCC | 0.0886 |
| ACATGTTC | -0.238 |
| ATTAGCAG | 0.0691 |
| ACTACACG | -0.114 |

For quick reference, copied from above (study 4):
| Strand | 7-mer Z-score |
| --- | --- |
| CAGUCUA | -0.141 |
| GUACACC | -0.209 |
| GACAACG | -0.012 |
| GAGCCCC | -0.403 |
| UGUUGUA | -0.345 |
| GAUUUGC | -0.403 |
| GACAUGG | 0.0768 |
| CAACAGA | 0.213 |
| ACACCGA | 0.00979 |
| GAGCAGU | -0.146 |
